# Published values pooled from the literature.
# Compare with care: the assays were run in different laboratories. Numbers after ± are the reported error.
# Target: Cytochrome P450 2C19 (CYP2C19, Homo sapiens, UniProt P33261)
# Chain of UniProt P33261 (whole entry, looked up): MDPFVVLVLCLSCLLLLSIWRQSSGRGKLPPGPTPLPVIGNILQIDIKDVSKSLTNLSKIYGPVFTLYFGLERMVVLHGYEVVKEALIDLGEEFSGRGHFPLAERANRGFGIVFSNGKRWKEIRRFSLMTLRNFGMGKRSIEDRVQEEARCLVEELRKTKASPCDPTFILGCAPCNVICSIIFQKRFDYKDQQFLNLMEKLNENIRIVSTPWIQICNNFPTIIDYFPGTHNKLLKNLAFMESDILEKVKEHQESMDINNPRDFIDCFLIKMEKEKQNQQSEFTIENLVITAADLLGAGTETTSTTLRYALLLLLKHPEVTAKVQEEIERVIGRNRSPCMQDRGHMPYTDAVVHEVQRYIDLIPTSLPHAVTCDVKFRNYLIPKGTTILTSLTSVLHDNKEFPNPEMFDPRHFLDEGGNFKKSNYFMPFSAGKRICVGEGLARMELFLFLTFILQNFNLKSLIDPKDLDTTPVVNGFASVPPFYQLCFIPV
SMILES,test,test system,setting,measurement,result
c1ccc(C2(CCNC3CCC4(SCCS4)c4ccccc43)CCOC3(CCCC3)C2)nc1 (stereo not shown),"enzyme activity, inhibitor","human, liver microsomes",,IC50,24.3 µM
COc1ccc(F)cc1S(=O)(=O)Nc1cnc2c(c1)C(=O)NCCO2,"enzyme activity, inhibitor","human, liver microsomes",with preincubation,IC50,> 100 µM
Cc1ccc(N2CC3CCC(C2)N3C)cc1C(=O)N[C@H](C)c1cc(-c2cnn(C)c2)nc2ccccc12,enzyme activity,,,IC50,> 50 µM
"CCCCCc1cc(O)c2c(c1)OC(C)(C)C1CCC(C)=CC21 (single isomer, unassigned; (-))","inhibitor, probe substrate","recombinant microsomes, HEK293",with: omeprazole,Ki,1.3 ± 0.42 µM
Cc1ccc2nc(C)c(C(=O)NCc3cccs3)n2c1,inhibitor,,,IC50,25 µM
CCn1ccc(-c2cc(-c3cnn(C)c3)cc([C@@H](C)NC(=O)c3cc(OCCN(C)C)ccc3C)c2)n1,"enzyme activity, inhibitor",pooled human liver microsomes,10 (unit not given),IC50,> 50 µM
CCc1ccc([C@@H]2C[C@H](C(F)(F)F)n3ncc(C(=O)NCc4ccc(OC)cc4)c3N2)cc1,inhibitor,,,IC50,10 µM
C(#Cc1cncc(OC[C@@H]2CCN2)c1)c1ccccc1,"enzyme activity, inhibitor, fluorescence",,,IC50,1.12 µM
CNc1nc(SC)nc2ccccc12,inhibitor,,,IC50,22 µM
C[C@H](NCc1ccc(-c2ccc(C(F)(F)F)cc2)cc1)C(N)=O,"enzyme activity, inhibitor, luciferase",,pH 7.4,IC50,> 10 µM

# Some of these lines once more:
SMILES,test,test system,setting,measurement,result
COc1ccc(F)cc1S(=O)(=O)Nc1cnc2c(c1)C(=O)NCCO2,"enzyme activity, inhibitor","human, liver microsomes",with preincubation,IC50,> 100 µM
